Assay results from different studies.
Every numbered part comes from another study and shows a few of its results, in no order. Substitutions count along the parent as printed.

Study 1
Target: RNA binding protein fox-1 homolog 2, RRM domain, GST-SBP tag (RBFOX2, Homo sapiens, UniProt O43251-10, residues 100-194)
Technique: RNA Bind-n-Seq
Molecule type: RNA
Medium: in vitro
Concentration: 365 nM
Setting: natural RNA segment, single round, ends assumed
Baseline: no-protein control
Direction: higher = stronger binding
Measurement: RBNS enrichment (R)
Constant ends, left off below: GGGAGUUCUACAGUCCGACGAUC … UGGAAUUCUCGGGUGCCAA
Target sequence (chain): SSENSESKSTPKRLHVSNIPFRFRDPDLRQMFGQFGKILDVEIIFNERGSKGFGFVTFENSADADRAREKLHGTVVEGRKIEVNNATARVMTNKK
CAAUAAUAGAUUUCCUCUUUUUUGGCAUGCUUUUUAGAUUUUUUUUCAUUUUGUAAAAUCUCAGUUAAUUUUUCUUUAUUGGUAUAUUUGUGUAUGCGAGACAAAUCCUG: 18
UGAGCUGUGUUAAACCUCAGAGUUUAAAAGCUACUGAUAAACUGAAGAAAGUGUCUAUAUUGGAACUAGGGUCAUUUGAAAGCUUCAGUCUCGGAACAUGACCUUUAGUC: 0.375
ACCCACAACUAAAAAUGUAUCCACAUAGUAGUGUUCGUUUGUCGAGAGGAUUUCCUGAGACUGGUUUGGAUCUCCCUGCAUGACAGUCCCCCAGAAACUUAGUGAGUCCU: 13.4
GAAAUAAGUCAGGUUCUUUACAAAUGGUAUUUUGAUAGAUACUGGAUUGUGUUUGUGCCAUAUUUGUGCCAUUCUUUUAAGAACAAUGUUGCAACACAUUCAUUUGGAUA: 1.47
UCCCGAAAUAAAACACAACAAAAAAAACCCCACCCCAUAAUCUUCAGGACAGUCUGUCUUAAAUUUCAUAUGAGAACUUCUUCCUCCCUUUGAAGAUCUGUCCAUAUUCA: 0.835
UCUGGGCCUAGGAUGGCAUUGGCCCUCGAUGCUAGAGUUGGCUGCAUUCUCUCCUUACCUGCAGACUAUGCACAGUUCCUGGAGCAGAGGGAGAGGUGGUGUGGCUUGCC: 0.854
UGAGUUUCUGUUGCUGGCUGGCUGACUGGCAUUAUCUAUGCUAAGUUGAAAUCAGGGGUGCCCAGCAGAGCCCAUCAUUCUCACUGUCUUUGAAACAAAGCUGUACGGUU: 0.339
UUCCACGUACUGCACGGUCGUAUUUCAUGAGCUUUCUGUCCAUAGCACAGAAACAGAGCAGAAAGUAGUACAAUCAUGUUGGACCUUCUUUCUGUUCUCUUUACUCUUCU: 0.341
AAAUUUUUAAUUAAUUUCAAAGCUUCCUCUGGCCAGGUAGACUUUUGUAUACAGACCAGGUGAGAGCCCUUUUGCCUUAGUGUGAAAAUGUAACAUUUUAUGCUUUUAAA: 0.563
GCUGCACAUACCUUUUUCAAAAGGGACACUCGGGAAGUCACUGCUGUGACCGUUUCGAUGUUGAUAAGAAGGUGAAUUUACUGUAGUGUUACCACCUUCUCCCCACUUGA: 0.913
GGGGGCUGGAGCCAUGCCUUGGUAGUGACAGACGCAGGUAAAGGUGACAUCCAUAAACAGAGGCAGGCCUAGGCUCUGGAAAGAUCCUCAGUCCUUUCUUACAACAACUU: 0.413
CCCUUAACCUAUCUCUUGGGACUUAGCCCGACCCUCCCUCUCAUUUCCCAUUAAGUCUGAGAGGCAAGAGCUAGGUUAGGCAAGGAGGUGGUUGGCCAGAGAUGGGGAAC: 0.269

Study 2
Target: CCNA2, cyclin fold, Cln2 fusion (human)
Technique: yeast growth competition, sequencing
Medium: yeast
Setting: strong parent motif
Baseline: not given
Direction: higher = stronger binding
Measurement: normalised enrichment score
Starting sequence: BRCA2 docking peptide (human); PSIKRNLLNEFDR
R5Q: 1.11
K4G: 1.79
D12S: 4.59
N6V: 2.79
N6I: 1.67
L7D: 0.343
E10P: 1.68
K4C: 5.68
I3D: -0.774
I3G: 3.79
K4F: 3.22
R5W: 0.377
S2K: 5.74

Study 3
Target: Ras GTPase-activating protein-binding protein 1, RRM domain (G3BP1, Homo sapiens, UniProt Q13283)
Chain of UniProt Q13283 (whole entry, looked up): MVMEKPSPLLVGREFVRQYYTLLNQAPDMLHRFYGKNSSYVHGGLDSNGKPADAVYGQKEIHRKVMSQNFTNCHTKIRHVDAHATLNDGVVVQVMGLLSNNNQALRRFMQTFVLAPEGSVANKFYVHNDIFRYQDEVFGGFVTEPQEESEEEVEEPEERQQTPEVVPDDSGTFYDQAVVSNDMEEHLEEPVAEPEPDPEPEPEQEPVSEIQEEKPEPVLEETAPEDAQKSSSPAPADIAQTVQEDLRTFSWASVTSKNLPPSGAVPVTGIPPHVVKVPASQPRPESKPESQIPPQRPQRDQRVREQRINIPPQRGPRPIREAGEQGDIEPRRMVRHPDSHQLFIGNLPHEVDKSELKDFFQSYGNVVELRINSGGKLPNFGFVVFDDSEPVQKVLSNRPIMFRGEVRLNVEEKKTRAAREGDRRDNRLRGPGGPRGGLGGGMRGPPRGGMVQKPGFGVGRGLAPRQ
Technique: RNA Bind-n-Seq
Molecule type: RNA
Medium: in vitro
Concentration: 1 µM
Setting: whole 134-nt RNA, ends assumed
Together with: 150 mM KCl
Baseline: input library
Direction: higher = stronger binding
Measurement: log2 enrichment
Constant ends, left off below: GGGAGUUCUACAGUCCGACGAUC … UGGAAUUCUCGGGUGUCAAGG
GUCCUGUGCUACACAUCGUAUGUACCGAAUCAAAUUUUUUUAAAUUUUUAAAUUUAAAAAAGUAUUAUGUUACGCCGUUCGGAUCUGCAC: -0.853
UCAAGUCCUGUGCUACACAUCGUAUGUACCGAAUCGGUUUUUUUGGUGGAAAGGAAAGUAUUAUGUUACGCCGUUCGGAUCUGCACUUCC: -0.159
UCAAGUCCUGUGCUACACAUCGUAUGUACCGAAUCGGGGCCGGGGCCGGCCGGGGAAAGUAUUAUGUUACGCCGUUCGGAUCUGCACUUC: -1.1
UGCCCAGCUCAUGCUGGACCACCUGAAGAACAGUGCUCCCAGCAAGCGAGAGAUUGCCCAGCUCAAGAACCAGGUAUCCACAGAGAGCAC: -0.346
CUGUGCUACACAUCGUAUGUACCGAAUCGGGGAAAAAAGGGAAAAAAGGGGAAAAAAGGGGAAAGUAUUAUGUUACGCCGUUCGGAUCUG: 0.0665
AGUCCUGUGCUACACAUCGUAUGUACCGAAUCGGUUUGGUUUUUUUGGAAAAAAAGGAAAGUAUUAUGUUACGCCGUUCGGAUCUGCACU: -0.236
CACAGACAACACGCACCCACACAGACACAGAGGGAAGGAGUUGGGAUGGGGACAGGGUGCACAGCAGGGCGGGGUAGGACCCCAGCCCCU: -0.0832
ACCAUGCAGGUGGGCAUCUUUGGGAAGUGGGGCAAGGCGGGGAUAGGGAGGGGGGUAACACUUUGGGAACAGGUGGUCCCAGGUCGUUUC: -0.443
AGUCCUGUGCUACACAUCGUAUGUACCGAAUCGGCCCCGGGGCCCCGGGGCCCCGGGAAAGUAUUAUGUUACGCCGUUCGGAUCUGCACU: -0.836
CUCAAGUCCUGUGCUACACAUCGUAUGUACCGAAUCGGUGGAAAGGAAAAAGGAAAGUAUUAUGUUACGCCGUUCGGAUCUGCACUUCCA: -0.135
AGUCCUGUGCUACACAUCGUAUGUACCGAAUCGGAAAAGGGGAAAAGGGGAAAAGGGGAAAGUAUUAUGUUACGCCGUUCGGAUCUGCAC: 0.272
UGGGAGGUGGAUUUUGUUUAUUUUUUUAGCUCAUUUCCAGGGGUGGGAAUUUUUUUUUAAUAUGUGUCAUUAAUAAAGUUGUUUUUGAAA: 1.65
CAAGUCCUGUGCUACACAUCGUAUGUACCGAAUCGGGUGGGAGGGUUUUUUUGGGAAAGUAUUAUGUUACGCCGUUCGGAUCUGCACUUC: 0.695
AGUCCUGUGCUACACAUCGUAUGUACCGAAUCGGGAAAAAAAGGGAAAAAGGGAGGGAAAGUAUUAUGUUACGCCGUUCGGAUCUGCACU: 0.734

Study 4
Target: Phosphate system positive regulatory protein PHO4, full length, GST-tagged (PHO4, Saccharomyces cerevisiae, UniProt P07270, residues 1-312)
Technique: competition protein-binding microarray
Molecule type: double-stranded DNA, one strand shown
Medium: in vitro
Concentration: 2 µM
Setting: whole 60-bp probe, lowest competitor level
Together with: Cbf1 competitor, 0.05 µM
Direction: higher = stronger binding
Measurement: fluorescence intensity
Constant ends, left off below: … GTCTTGATTCGCTTGACGCTGCTG
Target sequence (chain): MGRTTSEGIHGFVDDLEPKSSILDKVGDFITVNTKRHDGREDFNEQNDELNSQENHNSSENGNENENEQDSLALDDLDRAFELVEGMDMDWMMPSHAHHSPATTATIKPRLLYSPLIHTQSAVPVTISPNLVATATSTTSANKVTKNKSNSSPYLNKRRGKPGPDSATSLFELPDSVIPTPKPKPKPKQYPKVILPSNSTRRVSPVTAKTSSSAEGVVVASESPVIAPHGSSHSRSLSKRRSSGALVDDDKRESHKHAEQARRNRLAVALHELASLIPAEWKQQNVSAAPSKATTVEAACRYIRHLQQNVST
TTAAAGTTTCTCCATCACGTGAAGCATTACCATTTT: 12400 a.u.
AAATTACTAAGTTTTCACGTGTACTACCCCGTATGA: 13100 a.u.
GTTATAAAAATATGTCAGGTGATTTTTTTTTCTCTT: 3970 a.u.
GTCTTGTCTCATTGTCACAAAACTTTCCCCACTTCA: 3990 a.u.
GTCTTGTCTCATTGTAATGTGGGTGTCCCCACTTCA: 4820 a.u.
CGGTAAATGAATCAGCATGTGAATTTTTCTAGAAAA: 5610 a.u.
CTAACGAAGGTTTTTCACGTGCCTTACAAGCCAAGT: 14500 a.u.
ATATTTCCACTTACCCATGTGTTTATAATCGCGGGA: 9010 a.u.
CTAACGAAGGTTTGTTAAGTGGGTGACAAGCCAAGT: 4420 a.u.
CGGGGTTAAGTTTGTTCCGTGGGTGGCTTGCAGCAG: 5530 a.u.

Study 5
Target: Sal-like protein 4, full length isoform B (SALL4, Homo sapiens, UniProt Q9UJQ4-2, residues 1-616)
Technique: universal PBM
Molecule type: double-stranded DNA, one strand shown
Medium: in vitro
Concentration: not given
Setting: 8-mer, flanks averaged, mean of replicates
Direction: higher = stronger binding
Measurement: E-score
CCCTGAAC: 0.0474
GGACCCAA: -0.14
CCTGCCAC: -0.226
ATCTAACG: 0.0741
TCTGTTCA: -0.0248
AACGAGAC: -0.0895
TATCGATA: 0.088
GGGAATAA: 0.211
AACGGAGT: -0.0292
ACCCTATG: 0.0769
AAGGACAG: -0.148
TGCGACAA: 0.0606
GCTCCGTA: -0.125
AGAGACAA: 0.101
ATCCGTTG: 0.0169
AGTATCGC: 0.0386
ACCCTGAT: -0.0136

A few entries again (study 2):
R5Q: 1.11
I3D: -0.774
K4G: 1.79
R5W: 0.377
